Measured values pooled from the literature.
Lines come from different studies, so protocols differ. Numbers after ± are the reported error.

`NS(=O)(=O)OC[C@@H]1C[C@@H](n2ccc3c(N[C@H]4CCc5ccccc54)ncnc32)C[C@@H]1O` has a clearance of 525 mL/min (population PK model; adult cancer patients, plasma; intravenous, typical patient).
The clearance of `COc1cc2c(cc1OC)CN(CCc1ccc(NC(=O)c3cc(OC)c(OC)cc3NC(=O)c3cnc4ccccc4c3)cc1)CC2` is reported as 154 mL/min (human, plasma; intravenous infusion, 4 mg/kg).
For `CO[C@H]1C[C@@H]2CC[C@@H](C)[C@@](O)(O2)C(=O)C(=O)N2CCCC[C@H]2C(=O)O[C@H]([C@H](C)C[C@@H]2CC[C@@H](OCCO)[C@H](OC)C2)CC(=O)[C@H](C)/C=C(\C)[C@@H](O)[C@@H](OC)C(=O)[C@H](C)C[C@H](C)/C=C/C=C/C=C/1C`, “clearance at steady state” read “decreased” (HPLC-MS/MS; responder patients, whole blood; cycle 1 day 15; baseline: partial or non-responders).
With `CN[C@H]1C(=O)N[C@@H]2Cc3ccc(cc3)Oc3cc4cc(c3O[C@@H]3O[C@H](C(=O)O)[C@@H](O)[C@H](O)[C@H]3NC(=O)CCCCCCCCC(C)C)Oc3ccc(cc3Cl)[C@@H](O)[C@@H]3NC(=O)[C@H](NC(=O)[C@@H]4NC(=O)[C@@H](NC2=O)c2cc(cc(O)c2Cl)Oc2cc1ccc2O)c1ccc(O)c(c1)-c1c(O[C@H]2O[C@H](CO)[C@@H](O)[C@H](O)[C@@H]2O)cc(O)cc1[C@@H](C(=O)NCCCN(C)C)NC3=O` the clearance was 0.675 mL/min (healthy Japanese subjects, plasma; intravenous infusion, 1000 mg, 30 min infusion).
Under “clearance difference (CL/F max-min)”, `CC(C)NCCCC[C@H](NC(=O)[C@H]1CCC(=O)N[C@@H](Cc2ccccc2)C(=O)N[C@@H](Cc2ccc(O)cc2)C(=O)N[C@@H](CCCCNC(C)C)C(=O)N[C@H](CCCNC(=N)N)C(=O)N[C@@H](Cc2ccc3ccccc3c2)C(=O)NCC(=O)N1)C(N)=O` is recorded as 12.9 L/h (population PK model; advanced cancer patients, plasma; subcutaneous, 1 to 30 mg daily).
`CC(C(=O)O)c1ccc(-c2ccccc2)c(F)c1` (centres unmarked) gave a clearance of 0.233 ± 0.167 mL/min (male rabbit, plasma; oral, 2.58 mg/kg).
`NC(=S)NN=Cc1ncccc1N` gave a clearance of 374 mL/min (patients, plasma; intravenous infusion, 75 mg/m2, 24 h infusion, steady state).
For `C/C=C1\NC(=O)[C@H]2CSSCC/C=C/[C@H](CC(=O)N[C@H](C(C)C)C(=O)N2)OC(=O)[C@H](C(C)C)NC1=O`, the clearance was 108 mL/min (advanced cancer patients, plasma; intravenous, 14 mg/m^2, geometric mean, added: rifampin 600 mg).
The clearance of `O=C(O)C[C@H](O)C[C@H](O)/C=C/c1c(C2CC2)nc2ccccc2c1-c1ccc(F)cc1` is reported as 138 mL/min (healthy Chinese male volunteers, plasma; oral, 2 mg once daily, multiple dose).
The clearance of `COc1cccc(N2CCN(C3=Nc4c(F)cccc4[C@H](CC(=O)O)N3c3cc(C(F)(F)F)ccc3OC)CC2)c1` is reported as 67.4 ± 17.4 mL/min (UHPLC-MS/MS; healthy women, plasma; intravenous infusion, 960 mg single dose, 60 min infusion, HPβCD formulation).
The clearance of `Polymyxin B` is reported as 12.9 ± 5.1 mL/min (plasma; 5 µg/mL, blood flow 100 mL/min, dialysate flow 2000 mL/h).

A few entries again:
`CC(C(=O)O)c1ccc(-c2ccccc2)c(F)c1` (centres unmarked) gave a clearance of 0.233 ± 0.167 mL/min (male rabbit, plasma; oral, 2.58 mg/kg).
